Measured values from different studies.
Values joined by “and” are separate records of one study, mostly repeats; a detail may differ. ± gives the spread as reported. ≈ marks a conversion by molar mass, not a printed value.

SMILES = COc1cccc(-n2ncc3c(N/N=C/c4ccc(C(=O)NCCN(C)C)cc4)ncnc32)c1; organism = Trypanosoma brucei; setting = unit not given; how to read = baseline: pEC50 T. brucei minus pTC50 HepG2; quantity = selectivity; result = 1.8
SMILES = C[C@@H]1O[C@@H](OC[C@H]2O[C@@H](Oc3c(-c4ccc(O)c(O)c4)oc4cc(O)cc(O)c4c3=O)[C@H](O)[C@@H](O)[C@@H]2O)[C@H](O)[C@H](O)[C@H]1O; organism = Streptococcus mutans; setting = MIC, first 15 min, added: glucose 1%; quantity = initial rate of glycolytic pH drop; result = 0.037 pH units/min
SMILES = CC(C)CN1C[C@H]2CC[C@@H]3[C@]4(C)COC(C)(C)O[C@@H]4CC[C@@]3(C)[C@@H]2C[C@@H]1C1=CCOC1=O; organism = Human coronavirus 229E; test = cytopathic effect; system = MRC5; setting = 25 µM, corrected for cytotoxicity; quantity = inhibition; result = 32.8%
SMILES = CC[C@@H]1C(=O)N(C)c2cnc(Nc3ccc(C(=O)N[C@H]4CC[C@H](N5CCN(CC6CC6)CC5)CC4)cc3OC)nc2N1C(C)C; organism = Trypanosoma brucei; test = cell growth; quantity = EC50; result = > 3 µM
SMILES = Cc1ccc(C(C)C)c(OC2=C(Cl)C(=O)c3ccccc3C2=O)c1; organism = Aspergillus niger; system = ITCC 7787; setting = 10 µg/mL; quantity = zone of inhibition; result = 15 mm
SMILES = O[C@H]1[C@H]2c3cc4c(cc3CN3CCC(=C[C@@H]1O)[C@H]23)OCO4; organism = Mus musculus; test = gene silencing, high-content imaging; system = LDR reporter GFP cells; setting = retest run 1; quantity = maximal activity; result = 64%
SMILES = COc1ccc(CN2C[C@H]3CC[C@@H]4[C@](C)(COC(C)=O)[C@H](OC(C)=O)CC[C@@]4(C)[C@@H]3C[C@@H]2C2=CCOC2=O)cc1; organism = Human coronavirus 229E; test = cytopathic effect; system = MRC5; setting = 25 µM, corrected for cytotoxicity; quantity = inhibition; result = -51.3%
SMILES = [H]/N=C(\N/C(=N/[H])NCCCCCCNC(=N)NC(=N)Nc1ccc(Cl)cc1)Nc1ccc(Cl)cc1; organism = Streptococcus mutans; system = BHI agar; setting = 500 µg/disc; quantity = zone of inhibition; result = 18.5 ± 2 mm
SMILES = CC(C)n1ncc2c(C(=O)NCC3(C)CNC3)cc(C3CC3)nc21; organism = Enterovirus A71; test = viral replication; system = Tainan/4643/1998; setting = 3000 nM; quantity = plaque reduction; result = 100%
SMILES = O=c1oc2c(O)c(O)cc3c(=O)oc4c(O)c(O)cc1c4c23; organism = Streptococcus mutans; test = broth microdilution; quantity = MBC/MIC ratio; result = 2
SMILES = COC(=O)[C@H](Cc1ccc(O)cc1)NCc1cc2ccccc2nc1SC; organism = Pseudomonas aeruginosa; setting = 8 µg/mL, added: pentamidine 100 µM; how to read = baseline: control; quantity = growth; result = 43.2%
SMILES = CCn1c(-c2nonc2N)nc2c(C#CC(C)(C)O)nc(OC[C@H](N)c3ccccc3)cc21; organism = Trypanosoma brucei; setting = unit not given; how to read = baseline: pEC50 T. brucei minus pTC50 HepG2; quantity = selectivity; result = 0.8
SMILES = Oc1[nH]c2ccccc2c1N=NC(=S)N1CCOCC1; organism = Mus musculus; test = gene silencing, high-content imaging; system = LDR reporter GFP cells; setting = retest run 1; quantity = maximal activity; result = 85%
SMILES = CC(=O)Oc1ccccc1C(=O)Nc1ncc([N+](=O)[O-])s1; organism = Cryptosporidium parvum; system = HCT-8; setting = 9 x EC90, 0 h; how to read = baseline: DMSO control; quantity = parasite number; result = 93.3% and 101% and 109% and 96.8%
SMILES = N=C(N)c1ccc(OCc2ccccc2COc2ccc(C(=N)N)cc2)cc1; organism = Escherichia coli; system = BW25113; setting = concentration not given, lowest-FICI combination, added: novobiocin; quantity = MIC in combination; result = 25 µg/mL
SMILES = CC1(C)OC[C@@]2(C)[C@H]3CC[C@@H]4CN(Cc5ccc(O)cc5)[C@@H](C5=CCOC5=O)C[C@H]4[C@]3(C)CC[C@H]2O1; organism = Human coronavirus 229E; test = cytopathic effect; system = MRC5; setting = 25 µM, corrected for cytotoxicity; quantity = inhibition; result = 40%
SMILES = N=C(N)c1ccc(OCCCCCOc2ccc(C(=N)N)cc2)cc1; organism = Trypanosoma brucei brucei; system = Lister 427, BALB/c mice, infection; setting = ip, 4 mg/kg once at 2 dpi, 3 dpi; quantity = blood parasitaemia; result = < 250000 parasites/mL
SMILES = N=C(N)c1ccc(OCc2ccc(-c3ccccc3)cc2COc2ccc(C(=N)N)cc2)cc1; organism = Escherichia coli; system = BW25113; setting = concentration not given, lowest-FICI combination, added: novobiocin; quantity = MIC in combination; result = 6.25 µg/mL
SMILES = COc1ccc(-c2cc(-c3ccccc3)nc(SCC(=O)Nc3nccs3)c2C#N)cc1; organism = Mus musculus; test = gene silencing, high-content imaging; system = LDR reporter GFP cells; setting = retest run 2; quantity = maximal activity; result = 42%
SMILES = C[C@]1(CO)[C@H]2CC[C@@H]3CN(Cc4ccc(F)c(Cl)c4)[C@@H](C4=CCOC4=O)C[C@H]3[C@]2(C)CC[C@H]1O; organism = Human coronavirus 229E; test = cytopathic effect; system = MRC5; setting = 25 µM, corrected for cytotoxicity; quantity = inhibition; result = 10%
SMILES = CN(c1ccccc1)S(=O)(=O)c1nnc(NC(=O)c2ccccc2)s1; organism = Mus musculus; test = gene silencing, high-content imaging; system = LDR reporter GFP cells; setting = retest run 2; quantity = maximal activity; result = 180%
SMILES = CC1(C)OC[C@@]2(C)[C@H]3CC[C@@H]4CN(Cc5ccc(Br)cc5)[C@@H](C5=CCOC5=O)C[C@H]4[C@]3(C)CC[C@H]2O1; organism = Human coronavirus 229E; test = cytopathic effect; system = MRC5; setting = 25 µM, corrected for cytotoxicity; quantity = inhibition; result = 61.5%
SMILES = CC(C)COC(=O)c1ccc2c(c1)/C(=C/Nc1ccc(S(N)(=O)=O)cc1)C(=O)N2; organism = Trypanosoma brucei; setting = unit not given; how to read = baseline: pEC50 T. brucei minus pTC50 HepG2; quantity = selectivity; result = 2.2
SMILES = Cc1nc2[nH]c(=O)n(O)c(=O)c2s1; organism = Digitaria adscendens; setting = 1500 g/ha, 21 days, post-emergence, glasshouse pot; quantity = growth inhibition; result = 19.8%
SMILES = Cc1ccc(NC(=O)c2c(C)nc3sc(C(=O)NC4CCCC4)c(N)c3c2-c2ccco2)c(C)c1; organism = Mus musculus; test = gene silencing, high-content imaging; system = LDR reporter GFP cells; setting = retest run 1; quantity = maximal activity; result = 38%
SMILES = CO[C@H]1/C=C/O[C@@]2(C)Oc3c(C)c(O)c4c(c3C2=O)C2=NC3(CCN(CC(C)C)CC3)NC2=C(NC(=O)/C(C)=C\C=C\[C@H](C)[C@H](O)[C@@H](C)[C@@H](O)[C@@H](C)[C@H](OC(C)=O)[C@@H]1C)C4=O; organism = Mycobacteroides abscessus; test = bacterial growth; system = subsp. massiliense clinical isolate; setting = slow grower; quantity = IC90; result = 0.682 µM
SMILES = CCn1c(=O)c(-c2cc[nH]n2)cc2c(C)nc(N)nc21; organism = Enterovirus A71; system = RD infected with EV71; setting = concentration not given; quantity = RAN mRNA and protein level; result = decreased
SMILES = CC(C)Cc1ccc(C(C)C(=O)O)cc1 (stereo not drawn); organism = Aliivibrio fischeri; setting = 500 µM, 15 min; how to read = baseline: DMSO; quantity = bioluminescence inhibition; result = 60%
SMILES = [O-][S+]1CCN(Cc2ccc(-c3ccc4ncnc(Nc5ccc(OCc6cccc(F)c6)c(Cl)c5)c4c3)o2)CC1; organism = Trypanosoma brucei; setting = unit not given; how to read = baseline: pEC50 T. brucei minus pTC50 HepG2; quantity = selectivity; result = > 1.7
SMILES = Cc1ccc(NC(=O)N2Cc3[nH]cnc3C[C@H]2c2nc(-c3ccc4c(c3)OCO4)no2)cc1; organism = Caenorhabditis elegans; system = N2; setting = 12.5 µM; quantity = mean lifespan; result = 22.5 days
SMILES = Cc1cc(N2CCN(c3ccc([N+](=O)[O-])c4cccnc34)CC2)c2ccccc2n1; organism = Mus musculus; test = gene silencing, high-content imaging; system = LDR reporter GFP cells; setting = retest run 2; quantity = maximal activity; result = 30%
SMILES = COC(=O)[C@@H](NCc1cc2ccccc2nc1OCc1ccccc1)C(C)C; organism = Pseudomonas aeruginosa; setting = 16 µg/mL, added: pentamidine 50 µM; how to read = baseline: control; quantity = growth; result = 99.3%
SMILES = C[n+]1cc(NC(=O)c2ccc3ccc4ccc(C(=O)Nc5cc6ccccc6[n+](C)c5)nc4c3n2)cc2ccccc21; organism = Trypanosoma brucei; test = RNA-seq; system = Lister 427 bloodstream form; setting = 2 × EC50, 4 h, ChIP-seq G4 peak overlap; quantity = downregulated G4-containing genes; result = 7 genes
SMILES = C=C1C(=O)O[C@@H]2[C@H]3O[C@]3(C)CC/C=C(/C)CC[C@@H]12; organism = Mus musculus; test = gene silencing, high-content imaging; system = LDR reporter GFP cells; setting = retest run 2; quantity = maximal activity; result = 58%
SMILES = Cc1cc(Nc2ccc(S(F)(F)(F)(F)F)cc2)n2nc(C(C)(F)F)nc2n1; organism = Plasmodium falciparum; test = microscopy; system = P. falciparum malaria patients; setting = oral, 400 mg; quantity = PC50 parasite clearance time mean; result = 16.1 h
SMILES = COc1cc2c(cc1C(=O)Nc1ccc(C(C)(C)C#N)cc1)CCCCC2; organism = West Nile virus; test = viral replication; system = HEK293; quantity = EC90; result = 0.2 µM
SMILES = C[C@@H](Oc1cc(-n2cnc3ccc(OCC4CCN(C)CC4)cc32)sc1C(N)=O)c1ccccc1Cl; organism = Trypanosoma brucei; setting = unit not given; how to read = baseline: pEC50 T. brucei minus pTC50 HepG2; quantity = selectivity; result = 2.7
SMILES = O=C(O[C@@H]1O[C@@H]2COC(=O)c3cc(O)c(O)c(O)c3-c3c(cc(O)c(O)c3O)C(=O)O[C@H]([C@H]1O)[C@@H]2O)c1cc(O)c(O)c(O)c1; organism = Streptococcus mutans; test = broth microdilution; quantity = MBC/MIC ratio; result = 2
SMILES = CC1(C)OC[C@@]2(C)[C@H]3CC[C@@H]4CN(Cc5ccco5)[C@@H](C5=CCOC5=O)C[C@H]4[C@]3(C)CC[C@H]2O1; organism = Human coronavirus 229E; test = cytopathic effect; system = MRC5; setting = 25 µM, corrected for cytotoxicity; quantity = inhibition; result = 20.4%
SMILES = O=c1[nH]c(CCl)nc2scc(-c3ccc(F)cc3)c12; organism = Trypanosoma brucei brucei; system = 449 Lister 427 bloodstream form; setting = 24 h; how to read = baseline: EC50 HEK293 over EC50 T. brucei; quantity = selectivity index; result = 3 ± 0.8
SMILES = CC(=O)NC[C@H]1CN(c2ccc(N3CCOCC3)c(F)c2)C(=O)O1; organism = Staphylococcus aureus; test = time-kill; system = MRSA NRS123 USA400; setting = 4 × MIC, 24 h, 37 °C; quantity = CFU decrease; result = 1.89 log10
SMILES = CN[C@H](CC(C)C)C(=O)N[C@H]1C(=O)N[C@@H](CC(N)=O)C(=O)N[C@H]2C(=O)N[C@H]3C(=O)N[C@H](C(=O)N[C@H](C(=O)O)c4cc(O)cc(O)c4-c4cc3ccc4O)[C@H](O)c3ccc(c(Cl)c3)Oc3cc2cc(c3O[C@@H]2O[C@H](CO)[C@@H](O)[C@H](O)[C@H]2O[C@H]2C[C@](C)(N)[C@H](O)[C@H](C)O2)Oc2ccc(cc2Cl)[C@H]1O; organism = Streptococcus pneumoniae; system = penicillin-resistant, 10 isolates; setting = pH 8.5; quantity = MIC50; result = 0.5 µg/mL (≈ 0.345 µM)
SMILES = COc1cccc(N2CCN(S(=O)(=O)c3ccc(-n4cnnn4)cc3)CC2)c1; organism = Mus musculus; test = gene silencing, high-content imaging; system = LDR reporter GFP cells; setting = retest run 2; quantity = maximal activity; result = 208%
SMILES = N#Cc1cccc(Nc2nccc(-c3cnn4ncccc34)n2)c1; organism = Trypanosoma brucei; setting = unit not given; how to read = baseline: pEC50 T. brucei minus pTC50 HepG2; quantity = selectivity; result = > 4.1
SMILES = COc1cc(C=O)ccc1OC1=C(Cl)C(=O)c2ccccc2C1=O; organism = Aspergillus niger; system = ITCC 7787; setting = 10 µg/mL; quantity = zone of inhibition; result = 18 mm
SMILES = CN1CCN(c2ncc(-c3ccc4nncc(Nc5cnccn5)c4c3)cn2)CC1; organism = Trypanosoma brucei; test = cell growth; quantity = EC50; result = 3.5 ± 0.51 µM
SMILES = O=C(O[C@H]1CN[C@H](C#Cc2cc3ncnc(Nc4ccc5c(ccn5Cc5cc(F)ccc5F)c4)c3s2)C1)N1CCOCC1; organism = Trypanosoma brucei; setting = unit not given; how to read = baseline: pEC50 T. brucei minus pTC50 HepG2; quantity = selectivity; result = 1.4
SMILES = O=c1[nH]c2ncsc2c(=O)n1O; organism = Digitaria adscendens; setting = 750 g/ha, 21 days, post-emergence, glasshouse pot; quantity = growth inhibition; result = 0%

Repeated from above:
SMILES = Oc1[nH]c2ccccc2c1N=NC(=S)N1CCOCC1; organism = Mus musculus; test = gene silencing, high-content imaging; system = LDR reporter GFP cells; setting = retest run 1; quantity = maximal activity; result = 85%
SMILES = CC(=O)Oc1ccccc1C(=O)Nc1ncc([N+](=O)[O-])s1; organism = Cryptosporidium parvum; system = HCT-8; setting = 9 x EC90, 0 h; how to read = baseline: DMSO control; quantity = parasite number; result = 93.3% and 101% and 109% and 96.8%
SMILES = N=C(N)c1ccc(OCc2ccccc2COc2ccc(C(=N)N)cc2)cc1; organism = Escherichia coli; system = BW25113; setting = concentration not given, lowest-FICI combination, added: novobiocin; quantity = MIC in combination; result = 25 µg/mL
